# Experimental data pooled from the literature.
# Protocols differ between the studies behind these lines. “And” joins repeats or separate records; there may be more than shown. ± gives the spread as reported.
SMILES,assay,system,setting,scale,measurement,result
C=CC(=O)Nc1cc(Nc2nccc(-c3cn(C)c4ccccc34)n2)c(OC)cc1N(C)CCNC,storage stability,human dried blood spots,"72 h, on ice, LLOQ level",,recovery,73.3%
C[N+](C)(CCOCCOCCOCCNC(=S)Nc1ccc(C[C@H]2CN(CC(=O)[O-])CCN(CC(=O)[O-])CCN2CC(=O)[O-])cc1)C[c-]1cccc1.[64Cu+2].[Fe+2].c1cc[cH-]c1,pretargeted PET,"nude mouse, BxPC-3 xenograft","24 h post-radioligand, 216 h lag time",,tumour uptake,0.7 ± 0.1 %ID/mL
CCCSc1c(F)c(F)c(S(N)(=O)=O)c(F)c1F,,,sulfonamide group,,pKa,8.15
C=C(NC(=O)c1csc(-c2nc3c(cc2O)-c2nc(cs2)C(=O)NC(C(C)O)C(=O)NC(=C(C)OC)c2nc(cs2)C(=O)NC2c4nc(cs4)C(=O)NC(COC(=O)c4c5c6c(cccc6n4O)COC(=O)C(OC4CC(C)(O)C(N(C)C)C(C)O4)C2OC5)c2nc-3cs2)n1)C(N)=O (stereo not shown),,"Sprague-Dawley rat, female, plasma","intravenous infusion, 2 mg/kg single dose",,MRT(0-last),38.4 min
CCn1c(=O)c(-c2cc(NC(=O)Nc3ccccc3)c(F)cc2Br)cc2cnc(N)cc21,,human plasma,"150 ng/mL, 24 h, 24 °C, low QC",,short-term stability accuracy,0.58%
CN([O-])C(=O)CN1CCN(CC(=O)N(C)[O-])CCN(Cc2ccccn2)CC1.[89Zr+4],,"mouse, pancreas","intravenous, 24 h",,tracer uptake,0.28 %ID/g
[123I]c1ccc2nc(-c3ccc(-n4ccnn4)nc3)cn2c1,,"male Wistar rat, pancreas","intravenous, 4 MBq, 1 h",,tracer uptake,0.099 %ID/g
CC(C)C[C@H](NC(=O)[C@@H](CCCCNC(=O)[C@@H](Cc1ccccc1)NC(=O)CCCCCCCNC(=O)CN1CCN(CC(=O)O)CCN(CC(=O)O)CCN(CC(=O)O)CC1)NC(=O)[C@H](Cc1ccc(O)cc1)NC(=O)[C@H](CO)NC(=O)[C@H](Cc1c[nH]c2ccccc12)NC(=O)[C@H](Cc1c[nH]cn1)NC(=O)[C@@H]1CCC(=O)N1)C(=O)N[C@@H](CCCNC(=N)N)C(=O)N1CCC[C@H]1C(=O)NCC(N)=O [indium-111 labelled],,"male athymic nude mice, DU-145 prostate cancer xenograft, tumour","intravenous, 0.037 MBq, 2 h",baseline: tumour over muscle,tumour-to-tissue ratio,4.82
CC1(F)C(O)C(CO)OC1n1cnc2c(=O)[nH]c(N)nc21 (stereo not shown),,"healthy adult humans, plasma","oral, 550 mg once daily, day 6, fasted, given alone",,"Cmax, arithmetic mean",235 ng/mL
C=Cc1c(C)c2cc3nc(c(CC(=O)O)c4[nH]c(cc5nc(cc1[nH]2)C(C)=C5CC)c(C)c4C(=O)O)[C@@H](CCC(=O)OCCOCCOCCOC)[C@@H]3C,LC-MS,methanol-water 9:1,"5 min, pH 8.0",,compound loss,2%
Cc1n[nH]c(C)c1CCCOc1cc(C(=O)NCCCCC(NC(=O)CN2CCN(CC(=O)[O-])CCN(CC(=O)[O-])CCN(CC(=O)[O-])CC2)C(=O)NCC2CCC(C(=O)NC(Cc3ccc4ccccc4c3)C(=O)NCCCCC(NC(=O)NC(CCC(=O)O)C(=O)O)C(=O)O)CC2)ccc1F.[177Lu+3] (stereo not shown),,"BALB/c mouse, blood",intravenous,,distribution half-life,1.64 min
NCCCC[C@H](NC(=O)[C@H](Cc1c[nH]c2ccccc12)NC(=O)[C@H](Cc1c[nH]c2ccccc12)NC(=O)[C@@H](N)Cc1c[nH]c2ccccc12)C(N)=O,Trp fluorescence,DOPC unilamellar vesicles,"120 min, pH 7.2",,vesicle-associated concentration,~300 µM
COc1cc(OC)c(/N=N/c2ccc(C(=O)NO)cc2)c(OC)c1,,"Water, DMSO 0.5%","50 µM, E isomer, after 370 nm irradiation",,thermal half-life,4.3 min
Cc1nc(N)nc2c1C(=O)N[C@@H](c1ccc(F)cc1-c1cccc(O[11CH3])n1)C2,ex vivo biodistribution,"mice, MDA-MB-231 subcutaneous xenograft, spleen","60 min post-injection, baseline, vehicle pre-treatment",,tracer uptake,1.5 ± 0.5 %ID
CCCCN1C(=O)c2cccc3c(NCCCCCCCCCCN4CCOCC4)ccc(c23)C1=O,,ethylene glycol,,,fluorescence lifetime,7.1 ns
Cc1nn(-c2nc3c(F)cc(F)cc3s2)c(O)c1C(c1ccc(C(F)(F)F)cc1)c1c(C)nn(-c2nc3c(F)cc(F)cc3s2)c1O,,"ICR mouse, plasma","intraperitoneal, 10 mg/kg",,dose-normalised Cmax,432 kg·ng/mL/mg and 437 kg·ng/mL/mg and 455 kg·ng/mL/mg
CCCC[C@H](NC(=O)CNC(=O)CNC(=O)[C@H](CCCCNC(=O)[C@H](CC(=O)O)NC(=O)C(C)c1ccc(CC(C)C)cc1)NC(=O)CN1CCN(CC(=O)O)CCN(CC(=O)O)CCN(CC(=O)O)CC1)C(=O)N[C@H]1CC(=O)NCCCC[C@@H](C(N)=O)NC(=O)[C@H](Cc2c[nH]c3ccccc23)NC(=O)[C@H](CCCNC(=N)N)NC(=O)[C@@H](Cc2ccccc2)NC(=O)[C@H](Cc2c[nH]cn2)NC1=O (stereo partly shown) [lutetium-177 labelled],,C57 mouse,"intravenous, 2 h, together with: NDP-MSH blockade",baseline: tumour over muscle,tumour to tissue ratio,4.64
CC(=O)N[C@@H](Cc1ccccc1)C(=O)N[C@@H](CC(C)C)C(=O)NCC(=O)N[C@H](C(=O)N[C@@H](CC(C)C)C(=O)N[C@@H](C)C(=O)N[C@@H](CC(C)C)C(=O)N[C@@H](CC(C)C)C(=O)NCC(=O)N[C@@H](Cc1ccc(O)cc1)C(=O)N[C@@H](CC(C)C)C(=O)N[C@@H](C)C(=O)N[C@H](C(=O)N[C@@H](CCCNC(=N)N)C(=O)N1CCC[C@H]1C(=O)N[C@@H](Cc1ccccc1)C(=O)N[C@@H](CC(C)C)C(=O)N1CCC[C@H]1C(=O)N[C@@H](CCCCN)C(=O)N[C@@H](CCCCN)C(=O)N[C@@H](CCCCN)C(=O)N[C@@H](CCC(N)=O)C(=O)N[C@@H](CCC(N)=O)C(=O)N[C@@H](CCCCN)C(N)=O)C(C)C)C(C)C,LC-MS,DOPC/DOPS vesicles with trypsin,"10 µM, 12 h, pH 7.2",,cleaved to intact ratio,0.2 ± 0.1
O=C(c1ccccc1)N1C(c2ccc(OCC3CCN(CCCF)C3)cc2)c2ccc(O)cc2CC12CC2 (stereo not shown),,"C57BL/6J mouse, plasma","intraperitoneal, 25 mg/kg",,half-life,215 min
COCC1CN(C2CCN(c3cc(OC)c(Nc4ncc(Br)c(Nc5ccc6c(c5P(C)(C)=O)OCCO6)n4)cc3C)CC2)C1,,EGFR-mutant NSCLC patients,"oral, 240 mg once daily",,grade ≥3 treatment-related AEs,100%
Cc1cc(C)n(CCN(CCN)CCCCCCNC(=O)[C@@H](N)Cc2c[nH]cn2)n1.[99Tc+].[C-]#[O+].[C-]#[O+].[C-]#[O+],,BALB/c nude mice A549 xenograft,"intravenous, 24 h",baseline: tumour over bone,tumour-to-tissue ratio,7.6
CC(=O)N([O-])CCCCCNC(=O)CCC(=O)N([O-])CCCCCNC(=O)CCC(=O)N([O-])CCCCCN.[89Zr+4],,"mouse, heart",4 h,,tracer uptake,0.05 %ID/g
C=CC(=O)Nc1cc(Nc2nccc(-c3c[nH]c4ccccc34)n2)c(OC)cc1N(C)CCN(C)C,storage stability,human dried blood spots,"24 h, -80 °C, high QC level",,recovery,94.2%
N=C(N)NCCC[C@@H]1NC(=O)[C@H](CO)NC(=O)[C@@H](NC(=O)[C@H](CO)NC(=O)[C@H](CO)NC(=O)[C@H](Cc2c[nH]c3ccccc23)NC(=O)CNC(=O)[C@H](CO)NC(=O)[C@@H](N)Cc2c[nH]c3ccccc23)CSSC[C@@H](C(=O)NCC(=O)O)NC(=O)[C@H](CO)NC1=O,,"patients, plasma","intravenous, 5 mg/kg, thrice weekly, geometric mean",,volume of distribution (Vz),541 L
COc1ccnc(C(=O)N[C@H]2COC(=O)[C@H](Cc3ccccc3)[C@@H](OC(=O)C(C)C)[C@H](C)OC2=O)c1O,,silt loam soil,"organic carbon 1.0 %, pH 5.5",,organic carbon-normalised Kf (KFoc),2150 mL/g
COc1cccc(OC)c1-c1cc(C(=O)NC2(C(=O)O)C3CC4CC(C3)CC2C4)nn1-c1ccc(C(=O)N(C)CCOCCN(C)C(=O)[C@H](CCCCNC(=O)[C@H](CC(C)C)NC(=O)C2OC2C(=O)O)NC(=O)CN2CCN(CC(=O)[O-])CCN(CC(=O)[O-])CCN(CC(=O)[O-])CC2)cc1C(C)C.[177Lu+3] (mixture of isomers),,"mouse, HT-29 xenograft","168 h post injection, biodistribution",baseline: tumour over heart uptake,tumour-to-heart ratio,8.4
C=Cc1c(C)c2cc3nc(c(CC(=O)OCCOCCOCCOC)c4[nH]c(cc5nc(cc1[nH]2)C(C)=C5CC)c(C)c4C(=O)O)[C@@H](CCC(=O)OCCOCCOCCOC)[C@@H]3C,LC-MS,methanol-water 9:1,"5 min, pH 2.0",,compound loss,23%
CN1CCC[C@]1(C)/C=C/S(=O)(=O)NC(=O)Nc1c2c(cc3c1CCC3O)CCC2 (stereo partly shown),,"human, plasma","oral, 50 mg twice daily of parent drug, day 14, metabolite of dosed drug",,Tmax at first steady-state dose,180 min
O=C(CN1CCN(CC(=O)NCc2ncccc2O)CCN(CC(=O)NCc2ncccc2O)CCN(CC(=O)NCc2ncccc2O)CC1)NCc1ncccc1O.[177Lu+3],,"Sprague-Dawley rat, stomach","intravenous (tail vein), dose not given, 2 h",,tissue uptake,0.032 ± 0.002 % injected dose/g
O=C(O)CCCOc1ccc([18F])cc1-c1cc(-c2ccccc2C(F)(F)F)n(-c2ccccc2)n1,OLINDA/EXM from mouse data,"human adults, testes",,,absorbed dose,7.71 µGy/MBq
CCCCN1C(=O)c2cccc3c(NCCCCCCCCN4CCOCC4)ccc(c23)C1=O,,DMSO,,,fluorescence lifetime,10.5 ns
Cc1cccc(Cn2ncc3c4cc(F)c(CN(C)C)cc4n(C)c3c2=O)n1,,"Dutch-belted rabbit, plasma","intravitreal, 100 µM vitreous, 14.00 days",,plasma concentration,not detected
CCCC[C@H](NC(=O)CNC(=O)CNC(=O)[C@H](CCCCNC(=O)[C@H](CCN)NC(=O)C(C)c1ccc(CC(C)C)cc1)NC(=O)CN1CCN(CC(=O)O)CCN(CC(=O)O)CCN(CC(=O)O)CC1)C(=O)N[C@H]1CC(=O)NCCCC[C@@H](C(N)=O)NC(=O)[C@H](Cc2c[nH]c3ccccc23)NC(=O)[C@H](CCCNC(=N)N)NC(=O)[C@@H](Cc2ccccc2)NC(=O)[C@H](Cc2c[nH]cn2)NC1=O (stereo partly shown) [lutetium-177 labelled],,"C57 mice, tumour",2 h,baseline: lung,tumour-to-tissue ratio,15.9
CC(C)(O)c1ncc([S@](N)(=O)=NC(=O)Nc2c3c(cc4c2CCC4)CCC3)s1,measured: nervous system disorders,healthy human,"oral, 30 mg, 14 days, CS formulation, once daily",,subjects with TEAEs,67%
CC[C@H](C)[C@@H]1NC(=O)[C@H](Cc2ccc(O)cc2)NC(=O)CCCSC[C@@H](C(=O)N(CC(=O)N[C@@H](CC(C)C)C(=O)NCC(N)=O)Cc2ccc(F)cc2)NC(=O)[C@H](CC(N)=O)NC(=O)[C@H](CCC(N)=O)NC1=O,,human,"intranasal, 50 µg single dose",,serious adverse events,0%
O=C(Nc1cnccc1-c1ccc([18F])nc1)c1ccnc(NC(=O)C2CC2)c1,,"FVB/NJ mice, both sexes, brain","intravenous, 15 min, median, P-gp inhibitor pretreatment, together with: tariquidar 15 mg/kg iv",,SUV,0.229
CC(C(=O)O)n1nc(Cn2cc3cc(OCC[18F])c(Cl)cc3n2)c2ccccc2c1=O (racemic),,"Sprague-Dawley rat male, pancreas",5 min,,tissue uptake,0.25 ± 0.08 %ID/g
Cc1ccc(CN2C(=O)/C(=N\c3ccc(Cl)cc3Br)c3ccccc32)cc1,,"mouse, blood",150 mg/kg,,haematocrit,37.6 ± 0.91%
CC(C)(F)CC(NC(c1ccc(-c2ccc(S(C)(=O)=O)cc2)cc1)C(F)(F)F)C(=O)NCC#N (stereo not shown),,PBS,"100 µM, 23 h, pH 8, 37 °C, together with: cysteine 10 mM",,cysteine adduct formation,98%
O=C(Nc1cnccc1-c1ccc([18F])cc1)c1ccnc(NC(=O)C2CC2)c1,,"FVB/NJ mice (both sexes), lung","intravenous, dose not given, 120 min",,SUV,0.18

# Excerpt of the above:
SMILES,assay,system,setting,scale,measurement,result
Cc1nn(-c2nc3c(F)cc(F)cc3s2)c(O)c1C(c1ccc(C(F)(F)F)cc1)c1c(C)nn(-c2nc3c(F)cc(F)cc3s2)c1O,,"ICR mouse, plasma","intraperitoneal, 10 mg/kg",,dose-normalised Cmax,432 kg·ng/mL/mg and 437 kg·ng/mL/mg and 455 kg·ng/mL/mg
CCCC[C@H](NC(=O)CNC(=O)CNC(=O)[C@H](CCCCNC(=O)[C@H](CCN)NC(=O)C(C)c1ccc(CC(C)C)cc1)NC(=O)CN1CCN(CC(=O)O)CCN(CC(=O)O)CCN(CC(=O)O)CC1)C(=O)N[C@H]1CC(=O)NCCCC[C@@H](C(N)=O)NC(=O)[C@H](Cc2c[nH]c3ccccc23)NC(=O)[C@H](CCCNC(=N)N)NC(=O)[C@@H](Cc2ccccc2)NC(=O)[C@H](Cc2c[nH]cn2)NC1=O (stereo partly shown) [lutetium-177 labelled],,"C57 mice, tumour",2 h,baseline: lung,tumour-to-tissue ratio,15.9
